Measured values pooled from the literature.
Numbered parts are unrelated; each lists some results of a single study.

Set 1
Target: Histone acetyltransferase KAT6A, winged helix 1, GST fusion (KAT6A, Homo sapiens, UniProt Q92794, residues 1-85)
Method: protein binding microarray
Form: double-stranded DNA, one strand shown
Matrix: in vitro
Tested at: not given
Notes: 8-mer, flanks averaged, mean of 2 arrays, mostly near background
Baseline: not given
Reading: higher = stronger binding
Endpoint: E-score
Construct (chain): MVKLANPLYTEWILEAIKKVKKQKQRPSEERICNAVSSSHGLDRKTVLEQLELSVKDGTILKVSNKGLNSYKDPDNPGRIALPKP
GTATAGCA: -0.0881
ATGTGACG: -0.0662
ACCTGAAT: -0.197
GCATAAAC: 0.0641
GCAATATA: -0.0186
CTTCTCTC: -0.122
ACGACCTA: -0.127
ACTGGTTA: -0.0744
ACGCTAGC: 0.218
CCATTATC: -0.169
AGTCAGAT: -0.199
CCTCTGCC: -0.0729
ACATCGCC: 0.247
GCACCAAC: 0.0119
GCTACGTA: 0.0614
TATCCTGA: -0.154
GGTATCGA: 0.101
GATACCGC: 0.339
GTCGATTA: -0.129
CCTAATTC: -0.0977
AACGCAAG: -0.0857

Set 2
Target: RING finger protein unkempt homolog, zinc fingers 1-6, GST-SBP tag (UNK, Homo sapiens, UniProt Q9C0B0, residues 30-357)
Method: RNA Bind-n-Seq
Form: RNA
Matrix: in vitro
Tested at: not given
Notes: RNA with constant flanks, human and mouse sites, ends assumed
Baseline: input RNA pool
Reading: higher = stronger binding
Endpoint: bound/input enrichment
Target sequence (chain): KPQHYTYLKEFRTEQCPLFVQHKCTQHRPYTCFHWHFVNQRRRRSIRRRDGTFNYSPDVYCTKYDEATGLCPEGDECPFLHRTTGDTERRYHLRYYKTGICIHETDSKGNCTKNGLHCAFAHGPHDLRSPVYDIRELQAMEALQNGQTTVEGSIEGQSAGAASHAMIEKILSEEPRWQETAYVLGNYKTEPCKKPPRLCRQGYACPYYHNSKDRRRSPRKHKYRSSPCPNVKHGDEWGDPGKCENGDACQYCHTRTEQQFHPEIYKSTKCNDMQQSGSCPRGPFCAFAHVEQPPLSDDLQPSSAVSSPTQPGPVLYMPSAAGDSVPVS
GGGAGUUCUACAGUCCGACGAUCCAUCUGUCUUGUCUGUCUGUCUGUCUAUCUAUCUAUCUAUCUAUCUAUCUAUCUAUCUAUCUAUCUAUCUAUCUAUCUAUCAUCUGUCUUGUCUGUCUGUCUGUCUGUCUAUCUAUCUAUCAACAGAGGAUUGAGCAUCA: 85.2 ratio
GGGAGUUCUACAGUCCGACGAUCCUUUGUGUUCAUGGUGGACUUUCACCAGAAAUACACACACUGGAUGAUAUUAGGAGAUUAGAUAGAUUUAAAGAGCCACCUGCAUUUGGACCAAUGUGUGACUUGCUAUGGUCUGAUCCUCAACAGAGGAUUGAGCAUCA: 22 ratio
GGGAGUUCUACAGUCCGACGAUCAAAGGAAAGGAAGUAGAUAACUUUGUGGACAAAUUAAAAUCUGAAGGUGAAACCAUCAUGUCCUCUAGUAUGGGCAAGCGUACUUCUGAAGCAACCAAAAUGCAUGCUCCACCCAUUAAUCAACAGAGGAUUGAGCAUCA: 0.198 ratio
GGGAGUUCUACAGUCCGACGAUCGCUGAUGCAAGUAAGGGUGAUGACCUGCUUCCUGCUGGCACUGAGGAUUAUAUCCAUAUAAGAAUUCAACAGAGAAACGGCAGGAAGACCCUUACCACUGUCCAAGGGAUCGCUGAUGAUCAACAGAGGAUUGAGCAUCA: 0.0958 ratio
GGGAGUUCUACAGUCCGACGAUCGGGCAUUGAUCUUCGAUCGCGAAGAUGGCUGCUGGCUGCCUGCUGGCCUUGACUCUGACACUUUUCCAAUCUUUGCUCAUCGGCCCCUCGUCGGAGGAGCCGUUCCCUUCGGCCGUCACUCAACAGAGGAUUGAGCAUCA: 0.225 ratio
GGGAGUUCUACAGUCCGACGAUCUUAUCCUGUUAUAGUGGUGUGCUGGAAUUCCCUGAGAUGGAACUGGUAAAUUACUUGACUGCUGCAAGUUUUCUUCAGAUGAGCCACAUUGUAGAACGGUGCACACAGGCCCUGUGGAAGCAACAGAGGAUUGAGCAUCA: 0.635 ratio
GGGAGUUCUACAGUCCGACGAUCACAAAACGCGUUCUCCCGGGGAAGUACUUGGAAGAGAUCGCCACACAGAUGCGCACGCACAGCAUCAACGCGCUGCUGAUCAUCGGUGGAUUCGAGGCCUACCUGGGACUCCUGGAGCUGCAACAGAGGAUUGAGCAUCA: 0.0624 ratio
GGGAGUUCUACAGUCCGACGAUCUUUGCUUUCCUAGUCGCUCAUUGCUUCCUGUCCAUUUACGAAAUGGUAGUGGAUGUAUUGUUCUUGUGUUUUGCCAUUGAUACAAAAUACAAUGAUGGGAGCCCUGGCCGAGAAUUCUAUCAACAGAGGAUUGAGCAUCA: 0.166 ratio

Set 3
Target: Ras GTPase-activating protein-binding protein 1, full length (G3BP1, Homo sapiens, UniProt Q13283)
UniProt Q13283, sequence (whole entry, looked up): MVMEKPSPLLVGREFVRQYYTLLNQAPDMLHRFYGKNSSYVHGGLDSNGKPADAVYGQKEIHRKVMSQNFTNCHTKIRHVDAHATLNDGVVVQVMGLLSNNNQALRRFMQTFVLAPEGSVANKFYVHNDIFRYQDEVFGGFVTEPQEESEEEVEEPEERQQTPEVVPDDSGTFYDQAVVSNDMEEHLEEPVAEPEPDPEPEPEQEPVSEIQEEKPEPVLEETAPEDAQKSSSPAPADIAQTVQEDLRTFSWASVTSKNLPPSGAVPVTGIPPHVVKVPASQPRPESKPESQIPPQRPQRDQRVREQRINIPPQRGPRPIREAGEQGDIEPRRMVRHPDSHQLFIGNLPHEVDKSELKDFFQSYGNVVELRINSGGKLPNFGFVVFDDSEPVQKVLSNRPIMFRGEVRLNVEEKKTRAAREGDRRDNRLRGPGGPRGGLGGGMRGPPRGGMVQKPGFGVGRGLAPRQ
Method: RNA Bind-n-Seq
Form: RNA
Matrix: in vitro
Tested at: 200 nM
Notes: whole 134-nt RNA, ends assumed
Added: 150 mM LiCl
Baseline: input library
Reading: higher = stronger binding
Endpoint: log2 enrichment
All molecules: 7-deaza-guanosine replaces G
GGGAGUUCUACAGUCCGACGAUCUCUGCUAAAGAGAAAGGAAAAUUUGAAGAUAUGGCAAAAGCGGACAAGGCCCGUUAUGAAAGAGAAAUGAAAACCUAUAUCCCUCCCAAAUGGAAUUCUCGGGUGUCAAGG: 0.714
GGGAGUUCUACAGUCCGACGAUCUAACUUUAGAGGAGGAUCUGAUGGAUAUGGCAGUGGACGUGGAGUUGGGGAUGGCUAUAAUGGGUAUGGAGGAGGACCUGGAGGUGGCAAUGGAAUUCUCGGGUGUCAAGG: -0.344
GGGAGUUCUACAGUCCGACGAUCGUCCUGUGCUACACAUCGUAUGUACCGAAUCGGGGUUUUUGGGUUUUUGGGGUUUUUGGAAAGUAUUAUGUUACGCCGUUCGGAUCUGCAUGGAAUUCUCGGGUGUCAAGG: -0.0509
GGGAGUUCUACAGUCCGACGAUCACCAUGCAGGUGGGCAUCUUUGGGAAGUGGAAAAAGGGGGGGAUAGGGAGGGGGGUAACACUUUGGGAACAGGUGGUCCCAGGUCGUUUCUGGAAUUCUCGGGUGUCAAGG: 0.428
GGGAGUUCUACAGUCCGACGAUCAGUCCUGUGCUACACAUCGUAUGUACCGAAUCGGUUUUGGGGUUUUGGGUUUUGGGGAAAGUAUUAUGUUACGCCGUUCGGAUCUGCACUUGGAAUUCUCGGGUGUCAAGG: -0.3
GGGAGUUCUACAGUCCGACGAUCUACUCAGCACAGAAAUUCAGGAGACACAGACAAGUUCUUCCACGAUGUCGUACAGACGAGAACUAGAGAAAUACCGUGACCUGGAUGAAGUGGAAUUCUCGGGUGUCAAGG: -0.325
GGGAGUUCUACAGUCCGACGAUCUGGCCCUGGUGGCAUGCGGGGAGGAAGAGGUGGCCUCAUGGAUCGUGGUGGUCCCGGUGGAAUGUUCAGAGGUGGCCGGGGUGGAGACAGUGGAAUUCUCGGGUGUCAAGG: -0.244
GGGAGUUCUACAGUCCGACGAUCAGUCCUGUGCUACACAUCGUAUGUACCGAAUCGGGGAGGGGUUUUUUUGGGGUGGGGAAAGUAUUAUGUUACGCCGUUCGGAUCUGCACUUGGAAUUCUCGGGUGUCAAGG: 0.742

Set 4
Target: RNA binding protein fox-1 homolog 2, RRM domain, GST-SBP tag (RBFOX2, Homo sapiens, UniProt O43251-10, residues 100-194)
Method: RNA Bind-n-Seq
Form: RNA
Matrix: in vitro
Tested at: 365 nM
Notes: natural RNA segment, single round, ends assumed
Baseline: no-protein control
Reading: higher = stronger binding
Endpoint: RBNS enrichment (R)
Target sequence (chain): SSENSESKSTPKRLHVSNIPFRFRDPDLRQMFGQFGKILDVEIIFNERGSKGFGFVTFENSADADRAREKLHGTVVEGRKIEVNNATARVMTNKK
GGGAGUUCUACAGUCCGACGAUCAAAGAUUUUUGUUAAGCUCAGGAUUUUAAAUUACACAGUUCACAAACAGUAAAGGCCAUGUGAAGAGAAUUAUUACAUCUUUAUUAACCUCAGCAUUUACUUUGUUUCUUUGGAAUUCUCGGGUGCCAA: 0.561
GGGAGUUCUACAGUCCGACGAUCUGGGUAAAGUGAUGAGCCAUGUUUAUCUACUGAUCAGCUUCAUCAAAUUCGCAUCUAACUGAAUGGUAGUGUCUUUAAAAUGUGCUGUUUUAUUUUAAAAAUAAUGCAUGUGGAAUUCUCGGGUGCCAA: 0.747
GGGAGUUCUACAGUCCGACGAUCCUAUUAUAAUUCAAUAAUUCUUUUGUUUACUGCCCUUUUCUGUUCAAGAAUUUUCUGGAAAUUACUCCCUUUCACAUGGUUGAACUCUUAAGUUGACCAGUUCUCAUAGCUGGAAUUCUCGGGUGCCAA: 0.268
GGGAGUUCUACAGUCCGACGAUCAAGCCAGGUAGGUAGUCUGAGUCAGGAUUGGAUCAACAGCCUCCUCUCUUGGGGACUCUCAAGAGCCUGUGUUCAUCUAGAAGUAGUAGUUUGAUUCUGGUUUCCCUCCUUGGAAUUCUCGGGUGCCAA: 0.466
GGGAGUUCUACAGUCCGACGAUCCCCGCAGUGUGCGGUUCGUGCCCUUAACCACCCGCUUCUUUGUUUCCCGCCCCUCUGCUUUCGCAGGAGCUCUUGUGCUUGAGUUCAGUGUUAGUGGUAGCGUGGCUCACUGGAAUUCUCGGGUGCCAA: 0.37
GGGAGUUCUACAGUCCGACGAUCGGUUCUUGGGCACACUCUAUAGCCAUACUGGACAGGAACCAGGUGCCCCGUGUAGGCAUCGUCGGUCGGUUUGCCGUCAGAGAUGGCGCAUCUCGCUGCAUCCCCCGAGAUGGAAUUCUCGGGUGCCAA: 0.45
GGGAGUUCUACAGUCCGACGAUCAGGGCUGAGGGUCUCCAACCGAUGCAUAGAUACAUUGAAAUACUUUAGAUUUCCCACAUGGAUGGUUUGAGACUAGAGAAAUACUUUUCUCUAGUUCGUUGGUUUUUAACUGGAAUUCUCGGGUGCCAA: 2.16
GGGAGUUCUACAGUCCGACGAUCCUCCCCUAGUUGGCCACUGGGGCCACCACCCUGACCACCACUGUGCCCCUCAUUGUUACUGCCUUGUGAGAUAAAAACUGAUUAAACCUUUGUGGCUGUGGUUGGCUGACUGGAAUUCUCGGGUGCCAA: 1.2

Repeated from above (set 1):
GCAATATA: -0.0186
CTTCTCTC: -0.122
ACGACCTA: -0.127
ACTGGTTA: -0.0744
ACGCTAGC: 0.218
